# Published values collected from several papers.
# Compare with care: the assays were run in different laboratories. Several values in a cell are separate wells, animals, samples, runs or records. ± marks the error that the study gave.
Structure (SMILES),assay,test system,conditions,scale,quantity,value
CN1Cc2cc(Cl)ccc2-n2c(nnc2C2CCN(c3cccc(F)n3)CC2)C1,,"male Sprague-Dawley rat, brain","intravenous, 0.03 mg/kg",,AUC,3.82 ng·h/mL
C/C(=N\OCCCN1CCCCC1)c1ccc(C(F)(F)F)cc1,,rhesus monkey,"dose not given, after dosing",,diastolic blood pressure,83 mmHg and 72 mmHg
CCCCCCCCCCCCCCCC(=O)N[C@@H](CCC(=O)NCCOCCOCCC(=O)NCCOCCOCCC(=O)NCCCC[C@H](NC(=O)[C@H](CC(=O)O)NC(=O)[C@H](CC(C)C)NC(=O)[C@H](Cc1ccc(O)cc1)NC(=O)[C@H](CCCCN)NC(=O)[C@H](CO)NC(=O)[C@H](Cc1ccc(O)cc1)NC(=O)[C@H](CC(=O)O)NC(=O)[C@H](CO)NC(=O)[C@@H](NC(=O)[C@H](Cc1ccccc1)NC(=O)[C@@H](NC(=O)CNC(=O)[C@H](CCC(N)=O)NC(=O)[C@@H](CO)NC(=O)[C@@H](N)Cc1c[nH]cn1)[C@@H](C)O)[C@@H](C)O)C(=O)N[C@@H](CCCNC(=N)N)C(=O)N[C@@H](CCCNC(=N)N)C(=O)N[C@@H](C)C(=O)N[C@@H](CCC(N)=O)C(=O)N[C@@H](CC(=O)O)C(=O)N[C@@H](Cc1ccccc1)C(=O)N[C@H](C(=O)N[C@@H](CCC(N)=O)C(=O)N[C@@H](Cc1c[nH]c2ccccc12)C(=O)N[C@@H](CC(C)C)C(=O)N[C@@H](CC(C)C)C(=O)N[C@@H](CC(N)=O)C(=O)N[C@H](C(=O)NCC(=O)NCC(=O)N1CCC[C@H]1C(=O)N[C@@H](CO)C(=O)N[C@@H](CO)C(=O)NCC(=O)N[C@@H](C)C(=O)N1CCC[C@H]1C(=O)N1CCC[C@H]1C(=O)N1CCC[C@H]1C(=O)N[C@@H](CO)C(N)=O)[C@@H](C)O)C(C)C)C(=O)O,refers to: AST,"Sprague-Dawley rat, male","subcutaneous, 100 µg/kg once daily, 14 days",,serum enzyme activity,132 ± 37.7 U/L
COc1cnc2cccc(N3CCc4c(cc(Cn5ccnc5)cc4-c4cn(C)nc4C(F)(F)F)C3=O)c2c1,,CD-1 mouse,"intraperitoneal, 100 mg/kg once daily, day 4, dose-escalation tolerability",baseline: day 1,body weight change,8.3%
C[C@H](O)[C@@H](NC(=O)[C@H]1CCCN1C(=O)[C@@H](CCCCN)NC(=O)[C@@H](CO)NC(=O)[C@@H](Cc1ccc(O)cc1)NC(=O)[C@@H](CC(N)=O)NC(=O)CCOCCOCCOCCNC(=O)CN1CCN(CC(=O)O)CCN(CC(=O)O)CCN(CC(=O)O)CC1)C(=O)N[C@H](CC(=O)O)C(=O)N[C@H](CCCNC(=N)N)C(=O)N[C@H](CCC(N)=O)C(=O)N[C@H](Cc1ccc(O)cc1)C(=O)N[C@H](Cc1c[nH]cn1)C(=O)N[C@H](Cc1ccccc1)C(N)=O [gallium-68 labelled],,"BALB/c nude mice U-87 MG tumour, tumor","intravenous, 1.85 MBq, 0.5 h, radiolabelled",,tissue uptake,3.77 ± 0.27 %ID/g
CC[C@H](C)[C@H](NC(=O)[C@H](CCCCN)NC(=O)CNC(=O)[C@H](CC(C)C)NC(=O)[C@H](Cc1ccccc1)NC(=O)[C@H](CCCCN)NC(=O)[C@H](CO)NC(=O)[C@H](Cc1ccccc1)NC(=O)[C@H](Cc1c[nH]c2ccccc12)NC(=O)[C@H](CCC(N)=O)NC(=O)[C@@H](NC(=O)[C@H](Cc1ccccc1)NC(=O)CCCCCNC(=O)CN1CCN(CC(=O)O)CCN(CC(=O)O)CCN(CC(=O)O)CC1)C(C)C)C(=O)N[C@@H](CCC(=O)O)C(=O)N1CCC[C@H]1C(=O)N[C@@H](CC(=O)O)C(=O)N[C@H](C(=O)N[C@@H](CO)C(=O)N[C@@H](CCC(N)=O)C(=O)N[C@H](C(=O)N[C@@H](CCC(N)=O)C(=O)N[C@@H](CC(=O)O)C(=O)N1CCC[C@H]1C(=O)N[C@@H](CC(N)=O)C(=O)N[C@@H](CC(=O)O)C(=O)N[C@@H](CCC(N)=O)C(=O)N[C@@H](Cc1ccc(O)cc1)C(=O)N[C@@H](CCC(=O)O)C(=O)N1CCC[C@H]1C(=O)N[C@@H](Cc1ccccc1)C(=O)O)C(C)C)C(C)C [copper-64 labelled],,"BALB/c mice, male, CT26 tumour-bearing, lung","2 h, vehicle-treated",,tissue uptake,3.53 ± 1.5 %ID/g
N#[11C]c1ccc(-c2csc(NN=C3CCCC3)n2)cc1,,"C57BL/6 mice, male, spleen","intravenous, 3 MBq, 30 min",,radioactivity uptake,1.52 ± 0.25 %ID/g
CC1(C)C(=O)N(c2ccc(C#N)c(C(F)(F)F)c2)C(=S)N1c1ccc(C(=O)O)c(F)c1,,"male human, plasma","oral, 80 mg, single dose, fasted",,half-life,228 h
O=C1NC2(CC2)COc2ncc(F)cc2[C@H]2COCCN2c2ccn3ncc1c3n2,,"Sprague-Dawley rat, male, spleen","oral, 20 mg/kg/day, 4 weeks dosing, end of recovery",,organ-to-body weight ratio,0.258 ± 0.052%
CC(C)Oc1c(NC(=O)c2ccc(NC(=O)[C@H](CC(N)=O)NC(=O)c3ccc(/N=N/c4ccccc4)cc3)cc2)ccc(C(=O)Nc2ccc(C(=O)O)cc2)c1O,absorbance kinetics,,"40 °C, photostationary to ground state",,thermal relaxation half-life,7.4 h
CSCC[C@H](N)C(=O)N[C@@H](C)C(=O)N[C@@H](Cc1c[nH]c2ccccc12)C(=O)N[C@@H](Cc1c[nH]cn1)C(=O)N[C@@H](CC(=O)O)C(=O)N[C@@H](CC(=O)O)C(=O)N[C@@H](CCC(=O)O)C(=O)N[C@@H](CCC(=O)O)C(=O)N[C@@H](Cc1ccccc1)C(=O)N[C@@H](C)C(=O)N[C@@H](CCCNC(=N)N)C(=O)N[C@@H](CCCNC(=N)N)C(=O)N[C@@H](CCCNC(=N)N)C(=O)N[C@@H](CCCNC(=N)N)C(=O)NCCCCCC(=O)NCCCCC(NC(=O)CCCCCNC(=O)[C@H](CCCNC(=N)N)NC(=O)[C@H](CCCNC(=N)N)NC(=O)[C@H](CCCNC(=N)N)NC(=O)[C@H](CCCNC(=N)N)NC(=O)[C@H](C)NC(=O)[C@H](Cc1ccccc1)NC(=O)[C@H](CCC(=O)O)NC(=O)[C@H](CCC(=O)O)NC(=O)[C@H](CC(=O)O)NC(=O)[C@H](CC(=O)O)NC(=O)[C@H](Cc1c[nH]cn1)NC(=O)[C@H](Cc1c[nH]c2ccccc12)NC(=O)[C@H](C)NC(=O)[C@@H](N)CCSC)C(=O)NCCCCC(NC(=O)C(CCCCNC(=O)CCCCCNC(=O)[C@H](CCCNC(=N)N)NC(=O)[C@H](CCCNC(=N)N)NC(=O)[C@H](CCCNC(=N)N)NC(=O)[C@H](CCCNC(=N)N)NC(=O)[C@H](C)NC(=O)[C@H](Cc1ccccc1)NC(=O)[C@H](CCC(=O)O)NC(=O)[C@H](CCC(=O)O)NC(=O)[C@H](CC(=O)O)NC(=O)[C@H](CC(=O)O)NC(=O)[C@H](Cc1c[nH]cn1)NC(=O)[C@H](Cc1c[nH]c2ccccc12)NC(=O)[C@H](C)NC(=O)[C@@H](N)CCSC)NC(=O)CCCCCNC(=O)[C@H](CCCNC(=N)N)NC(=O)[C@H](CCCNC(=N)N)NC(=O)[C@H](CCCNC(=N)N)NC(=O)[C@H](CCCNC(=N)N)NC(=O)[C@H](C)NC(=O)[C@H](Cc1ccccc1)NC(=O)[C@H](CCC(=O)O)NC(=O)[C@H](CCC(=O)O)NC(=O)[C@H](CC(=O)O)NC(=O)[C@H](CC(=O)O)NC(=O)[C@H](Cc1c[nH]cn1)NC(=O)[C@H](Cc1c[nH]c2ccccc12)NC(=O)[C@H](C)NC(=O)[C@@H](N)CCSC)C(N)=O (stereo partly drawn),,"C57BL/6 mouse female, lungs","dose not given, 3 h",baseline: total,tissue distribution,2.32% and 2.15% and 1.95%
N=C(N)NCCC[C@@H](NC(=O)[C@H](N)Cc1c[nH]c2ccccc12)C(=O)N[C@H](CCCCN)C(=O)N[C@H](Cc1c[nH]c2ccccc12)C(=O)N[C@H](CCCNC(=N)N)C(=O)N[C@H](CCCCN)C(=O)N[C@H](Cc1c[nH]c2ccccc12)C(=O)N[C@H](CCCNC(=N)N)C(=O)N[C@H](CCCCN)C(=O)N[C@H](Cc1c[nH]c2ccccc12)C(=O)N[C@H](CCCNC(=N)N)C(=O)N[C@H](CCCCN)C(N)=O,,"mouse, urine",30 mg/kg,,cystatin C level,26.4 ng/mL

# Excerpt of the above:
Structure (SMILES),assay,test system,conditions,scale,quantity,value
CN1Cc2cc(Cl)ccc2-n2c(nnc2C2CCN(c3cccc(F)n3)CC2)C1,,"male Sprague-Dawley rat, brain","intravenous, 0.03 mg/kg",,AUC,3.82 ng·h/mL
C/C(=N\OCCCN1CCCCC1)c1ccc(C(F)(F)F)cc1,,rhesus monkey,"dose not given, after dosing",,diastolic blood pressure,83 mmHg and 72 mmHg
